Results gathered from unrelated publications.
Each numbered part is a random draw from the data of one study; scales do not carry over between parts. Substitutions count along the parent as printed.

Block 1 — target: CCNE2, cyclin fold, Cln2 fusion (human); technique: yeast growth competition, sequencing; matrix: yeast; setting: strong parent motif; relative to: not given; direction: higher = stronger binding; parent: viral docking peptide; KGVKRKLFAEDSS
Under “normalised enrichment score”, `KGVWRKLFAEDSS [K4W]` is recorded as 0.565.
For `KGVKRKLFAYDSS [E10Y]`, “normalised enrichment score” read 4.63.
`KGVKRKLFDEDSS [A9D]`: “normalised enrichment score” 6.82.
`KGVKRKLGAEDSS [F8G]` — result for “normalised enrichment score”: 0.699.
For `KGVIRKLFAEDSS [K4I]`, “normalised enrichment score” read 5.89.
Under “normalised enrichment score”, `KGVKRKLFAERSS [D11R]` is recorded as 4.78.
`KGVKRVLFAEDSS [K6V]` — result for “normalised enrichment score”: 6.19.
Under “normalised enrichment score”, `KGEKRKLFAEDSS [V3E]` is recorded as 0.807.
Under “normalised enrichment score”, `KGVKRKLQAEDSS [F8Q]` is recorded as 0.374.
Under “normalised enrichment score”, `KGVDRKLFAEDSS [K4D]` is recorded as 0.455.
`KGVKRNLFAEDSS [K6N]` — result for “normalised enrichment score”: 3.02.
`KGVKRKLMAEDSS [F8M]`: “normalised enrichment score” 0.799.
`KGVKRKLFAEDAS [S12A]` — result for “normalised enrichment score”: 6.92.
`KGVKRKAFAEDSS [L7A]` — result for “normalised enrichment score”: -0.237.
For `KGVKRKLCAEDSS [F8C]`, “normalised enrichment score” read 0.57.
`KHVKRKLFAEDSS [G2H]`: “normalised enrichment score” 6.51.
Under “normalised enrichment score”, `KGVKRKLTAEDSS [F8T]` is recorded as 0.486.
Under “normalised enrichment score”, `KGVKRYLFAEDSS [K6Y]` is recorded as 1.34.
For `KGVKRKRFAEDSS [L7R]`, “normalised enrichment score” read 0.566.
For `KGVKRKLFALDSS [E10L]`, “normalised enrichment score” read 5.37.
For `KEVKRKLFAEDSS [G2E]`, “normalised enrichment score” read 5.73.
For `KGVKRKLFAEWSS [D11W]`, “normalised enrichment score” read 5.43.
Under “normalised enrichment score”, `KGVERKLFAEDSS [K4E]` is recorded as 0.871.
`KGVKRKLFAEASS [D11A]` — result for “normalised enrichment score”: 6.3.
Under “normalised enrichment score”, `KGVKIKLFAEDSS [R5I]` is recorded as 0.73.

Block 2 — technique: RNA Bind-n-Seq; molecule type: RNA; matrix: in vitro; tested at: 365 nM; relative to: no-protein control; direction: higher = stronger binding
Target: RNA binding protein fox-1 homolog 2, RRM domain, GST-SBP tag (RBFOX2, Homo sapiens, UniProt O43251-10, residues 100-194)
Setting: natural RNA segment, single round, ends assumed
Constant ends, left off below: GGGAGUUCUACAGUCCGACGAUC … UGGAAUUCUCGGGUGCCAA
Construct (chain): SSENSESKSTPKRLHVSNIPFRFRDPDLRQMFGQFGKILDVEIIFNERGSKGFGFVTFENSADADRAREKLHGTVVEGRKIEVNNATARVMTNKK
`UGUGUUCAAUAUCAGCUUUGAUAAUUGUGUACCUUAAGAUAUUGAAGGAGAAAAUAGAUAAUUUACAAGAUAUUAUUAAUUUUUAUUUAUUUUUCUUGGGAAUUGAAAAA`: “RBNS enrichment (R)” 1.26.
Under “RBNS enrichment (R)”, `CCCAGACUGACUUACACUAACCUAACUGCUCAGUGGCUGUCUAGAGACACUUUAGGAAGAUAAACUGAGCUUGAUCCUCAUCAUAUAGCCAGUUCCAUCACUCAGGUAGU` is recorded as 0.343.
Under “RBNS enrichment (R)”, `GCUGAUGUUGAUGACAGAAUUUAUUUGGUUGCCUUGUGUGUCAAUUGAAUGCAUACUAAACUGUAAAAAAAAUUUAUUUACAGCAUUGAAAAUUCAGAAGUUAAUGGUUU` is recorded as 0.471.
Under “RBNS enrichment (R)”, `UUUGUUUCCAGACCUGAUUAAAAUUUGGUUUAUUCUAAUUUCUGUACUAUAUCAUCUGAGGUUUUAAGUGGUAACUGGUUCUAUACCAUGUAUGUAUCAUAUGUUUGUUC` is recorded as 1.
For `UUACCUCGUGCAUUGUAUAAUUUGAUGUAAAAGAAAUAGUUACCAAUGCUAGCUUGUGUGGUCUUCCAUGAUUUAUUUGUGUUUUGUGAAUUUUCAAUUUAUGGUGAUGA`, “RBNS enrichment (R)” read 1.18.
Under “RBNS enrichment (R)”, `UACAGUACCAAAUGAUUGACUCAGGAUUGUUUUUCCCAUAUUGAUAUGCUGGCAAUAUAGGAUGGUAUGUAAUGGACAGAACUGAUGCAGAUGGUUGAAUGCGCUUGUAC` is recorded as 13.8.
`ACAUUUCCUGUAACGGAAGUGUUAAUUUUACUGUACUUUUUGGUACCUUUUGGGAAUCUAAUGUAUUGUAAGGUAUUUUACACGUGUCCUGAUUUUGCCACAACCUGGAU` — result for “RBNS enrichment (R)”: 0.385.
`UCCCGCUCAUAUGAGAGAGCAGGUGUCUGCCCUUGAGAGCUGGUGAGCCGCGUCAUCUGUUUGCGCUGGGCAAGGAGCUGCACCGCUGCGUUGACCUGCCUUGUCUUACG` — result for “RBNS enrichment (R)”: 0.531.

Block 3 — cell line: HEK-293T; organism: VSV pseudotyped with VSV-G; tested at: 10 µM; time: 16 h
For `OCCOc1ccc(/C(=C(/CCCl)c2ccccc2)c2ccccc2)cc1`, the pseudovirus infection was 98.6%.
With `CN(C)C(=N)N=C(N)N` the pseudovirus infection was 97.9%.
The pseudovirus infection of `COc1cc(Cc2cnc(N)nc2N)cc(OC)c1OC` is reported as 100%.

Block 4 — target: UBE2D4 UBC core domain (UniProt Q9Y2X8); technique: yeast two-hybrid; matrix: yeast; setting: mostly zero background; relative to: not given; direction: higher = stronger interaction
UniProt Q9Y2X8, sequence (whole entry, looked up): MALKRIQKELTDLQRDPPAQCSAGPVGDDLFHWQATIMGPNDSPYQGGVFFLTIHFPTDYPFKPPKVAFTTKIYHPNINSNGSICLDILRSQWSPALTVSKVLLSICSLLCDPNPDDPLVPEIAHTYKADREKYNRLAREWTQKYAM
B1: DZIP3 RING domain (UniProt Q86Y13); chain PDEEEEEEEPCVICHENLSPENLSVLPCAHKFHAQCIRPWLMQQGTCPTCRLHVLLPEEFP
B2: RNF133 RING domain (UniProt Q8WVZ7); chain DEEINPNGDSCVICFERYKPNDIVRILTCKHFFHKNCIDPWILPHGTCPICKCDILKVLGIQ
B3: SH3RF1 RING domain (UniProt Q7Z6J0); chain DESALLDLLECPVCLERLDASAKVLPCQHTFCKRCLLGIVGSRNELRCPECRTLVGSGVEEL
B4: RNF19A RING domain (UniProt Q9NV58); chain ISKQIGDFIECPLCLLRHSKDRFPDIMTCHHRSCVDCLRQYLRIEISESRVNISCPECTERFNPHDIR
B5: MDM4 RING domain (UniProt O15151); chain MEDCQNLLKPCSLCEKRPRDGNIIHGRTGHLVTCFHCARRLKKAGASCPICKKEIQLVIKVF
B6: ZMIZ2 RING domain (UniProt Q8NF64); chain GTIPGTPGPNGEDGVEQTAIKVSLKCPITFRRIQLPARGHDCRHIQCFDLESYLQLNCERGTWRCPVCNKTALLEGLEVDQYMLGILIYIQNSDYEEITIDPTCSWK
Under “lacZ reporter activity”, `GSRLQEINDVCAICYHEFTTSARITPCNHYFHALCLRKWLYIQDTCPMCHQKVYIEDDIK (RNF139 RING domain (UniProt Q8WU17))` is recorded as 0.
Under “lacZ reporter activity”, `FDGDVDPDLKCALCHKVLEDPLTTPCGHVFCAGCVLPWVVQEGSCPARCRGRLSAKELN (PDZRN3 RING domain (UniProt Q9UPQ7))` is recorded as 0.
`NLSELTPYILCSICKGYLIDATTITECLHTFCKSCIVRHFYYSNRCPKCNIVVHQTQPLY (PCGF6 RING domain (UniProt Q9BYE7))` — result for “lacZ reporter activity”: 0.
`B1 (DZIP3 RING domain)` — result for “lacZ reporter activity”: 0.
`B2 (RNF133 RING domain)`: “lacZ reporter activity” 18100.
For `AMYLQENGIDCPKCKFSYALARGGCMHFHCTQCRHQFCSGCYNAFYAKNKC (RNF31 RING domain (UniProt Q96EP0))`, “lacZ reporter activity” read 0.
Under “lacZ reporter activity”, `B3 (SH3RF1 RING domain)` is recorded as 0.
`AVPSGLEENLCKICMDSPIDCVLLECGHMVTCTKCGKRMNECPICRQYVIRAVHVF (RFFL RING domain (UniProt Q8WZ73))` — result for “lacZ reporter activity”: 0.
`KLRKLKEAMLCMVCCEEEINSTFCPCGHTVCCESCAAQLQSCPVCRSRVEHVQHVY (MYLIP RING domain (UniProt Q8WY64))`: “lacZ reporter activity” 0.
`KETIKKTTKPCPRCHVPVEKNGGCMHMKCPQPQCRLEWCWNCGCEWNRVCMG (PRKN RING domain (UniProt O60260))` — result for “lacZ reporter activity”: 0.
Under “lacZ reporter activity”, `GSDDEEIPFKCFICRQSFQNPVVTKCRHYFCESCALQHFRTTPRCYVCDQQTNGVFNPA (RNF113A RING domain (UniProt O15541))` is recorded as 0.
Under “lacZ reporter activity”, `B4 (RNF19A RING domain)` is recorded as 0.
`YQNEVDDDLVCHICLQPLLQPLDTPCGHTFCYKCLRNFLQEKDFCPLDRKRLHFKLCKK (LNX2 RING domain (UniProt Q8N448))` — result for “lacZ reporter activity”: 0.
Under “lacZ reporter activity”, `B5 (MDM4 RING domain)` is recorded as 0.
Under “lacZ reporter activity”, `B6 (ZMIZ2 RING domain)` is recorded as 0.

Excerpt of the above (block 1):
For `KGVIRKLFAEDSS [K4I]`, “normalised enrichment score” read 5.89.
Under “normalised enrichment score”, `KGVKRKLQAEDSS [F8Q]` is recorded as 0.374.
`KGVKRKLFAEDAS [S12A]` — result for “normalised enrichment score”: 6.92.
For `KGVKRKLCAEDSS [F8C]`, “normalised enrichment score” read 0.57.
Under “normalised enrichment score”, `KGVKRKLTAEDSS [F8T]` is recorded as 0.486.
`KGVKRNLFAEDSS [K6N]` — result for “normalised enrichment score”: 3.02.
